# Published values from different studies.
# Numbered parts are unrelated; each lists some results of a single study. Positions count from the first letter of the parent shown.

# Set 1 — technique: universal PBM; form: double-stranded DNA, one strand shown; sample: in vitro; concentration: not given; direction: higher = stronger binding
# Target: Sal-like protein 4, full length isoform B (SALL4, Homo sapiens, UniProt Q9UJQ4-2, residues 1-616)
# Notes: 8-mer, flanks averaged, mean of replicates
Sequence,E-score
AGCTTACC,-0.0961
ACTTTAAG,0.176
CGACTACC,-0.231
AAGCTCTG,-0.14
AGACCCTA,-0.0796
AGTGGTTG,-0.0169
CTGATTAA,0.182
GTTTACGA,0.0113

# Set 2 — Variant: R69N; technique: DHFR PCA, deep sequencing; sample: yeast; reference: wild-type fitted maximum; direction: higher = stronger binding
# Target: ABI1, truncated, D143A, DHFR fusion (Arabidopsis thaliana)
# Notes: methotrexate growth selection, single substitutions
# Parent: PYL1, truncated, DHFR fusion (Arabidopsis thaliana); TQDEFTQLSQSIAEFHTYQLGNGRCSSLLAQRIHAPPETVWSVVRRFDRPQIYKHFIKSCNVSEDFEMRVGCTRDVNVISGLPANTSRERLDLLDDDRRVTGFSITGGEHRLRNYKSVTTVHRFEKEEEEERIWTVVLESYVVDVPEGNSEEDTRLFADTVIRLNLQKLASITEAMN; partner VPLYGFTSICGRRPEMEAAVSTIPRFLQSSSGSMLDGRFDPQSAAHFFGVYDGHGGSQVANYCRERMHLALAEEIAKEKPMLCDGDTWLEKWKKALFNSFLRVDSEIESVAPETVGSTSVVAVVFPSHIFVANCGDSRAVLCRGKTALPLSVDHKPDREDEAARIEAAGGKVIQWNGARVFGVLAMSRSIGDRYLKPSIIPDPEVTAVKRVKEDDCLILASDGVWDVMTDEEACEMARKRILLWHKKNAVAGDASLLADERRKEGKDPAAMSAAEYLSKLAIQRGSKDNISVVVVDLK
conditions,relative binding score
with: (+)-ABA 0 µM,7.45%
with: (+)-ABA 0.0091 µM,4.99%
with: (+)-ABA 0.11 µM,13%
with: (+)-ABA 710 µM,93.1%
with: (+)-ABA 1.4 µM,39%
with: (+)-ABA 17 µM,75.3%

# Further values, each from its own experiment
# HCM1 DNA-binding domain: Forkhead transcription factor HCM1, DNA-binding domain (HCM1, Saccharomyces cerevisiae, UniProt P25364, residues 41-213)
# Chain of UniProt P25364 (41-213, looked up): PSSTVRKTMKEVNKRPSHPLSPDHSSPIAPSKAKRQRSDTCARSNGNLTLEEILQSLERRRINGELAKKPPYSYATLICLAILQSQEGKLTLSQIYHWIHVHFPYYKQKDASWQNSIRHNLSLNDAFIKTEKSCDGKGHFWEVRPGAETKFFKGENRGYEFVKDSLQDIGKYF
# P1: viral docking peptide; KGVKRKLFAEDSS; partner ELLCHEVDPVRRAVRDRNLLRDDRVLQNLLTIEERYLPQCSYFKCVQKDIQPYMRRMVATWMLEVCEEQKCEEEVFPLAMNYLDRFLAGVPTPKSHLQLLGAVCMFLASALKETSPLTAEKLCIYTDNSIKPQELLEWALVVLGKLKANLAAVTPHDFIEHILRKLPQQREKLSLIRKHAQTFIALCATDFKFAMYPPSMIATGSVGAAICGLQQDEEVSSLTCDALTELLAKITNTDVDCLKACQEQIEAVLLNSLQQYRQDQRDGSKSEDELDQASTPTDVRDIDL
# P2: PafA, mature enzyme, eGFP fusion (Elizabethkingia meningoseptica, UniProt Q9KJX5); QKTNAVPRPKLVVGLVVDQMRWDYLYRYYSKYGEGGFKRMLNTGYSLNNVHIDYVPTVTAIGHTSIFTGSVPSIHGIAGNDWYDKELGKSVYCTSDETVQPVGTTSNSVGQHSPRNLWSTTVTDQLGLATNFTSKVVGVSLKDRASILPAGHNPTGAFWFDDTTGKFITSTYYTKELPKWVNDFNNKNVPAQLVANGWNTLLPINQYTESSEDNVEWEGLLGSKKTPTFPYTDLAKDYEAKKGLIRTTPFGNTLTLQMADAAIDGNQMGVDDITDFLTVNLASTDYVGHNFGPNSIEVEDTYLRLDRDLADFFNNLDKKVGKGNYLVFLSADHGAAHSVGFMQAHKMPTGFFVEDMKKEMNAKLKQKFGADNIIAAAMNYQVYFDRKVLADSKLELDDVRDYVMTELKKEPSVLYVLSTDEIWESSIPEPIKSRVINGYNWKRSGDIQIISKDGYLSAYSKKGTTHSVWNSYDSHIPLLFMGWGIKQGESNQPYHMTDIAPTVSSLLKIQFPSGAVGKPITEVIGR
Substance,target,assay,test system,conditions,scale,measurement,value
GAAAACA,HCM1 DNA-binding domain,SELEX-seq,"double-stranded DNA, one strand shown, in vitro","not given, 7-bp core, flanks averaged","reference: best-binding core, lower = stronger binding",relative binding free energy,1.06 ddG/RT
P1 G2V,"CCND2, cyclin fold, Cln2 fusion (human)","yeast growth competition, sequencing",yeast,weak parent motif,"reference: not given, higher = stronger binding",normalised enrichment score,0.265
P2 A150G,"inorganic phosphate, free oxyanion",microfluidic competitive inhibition,"in vitro, cell-free expressed","not given, derived from inhibition constants, unchanged parent 615000 nM",lower = stronger binding,phosphate dissociation constant,583 µM
ATAAACA,HCM1 DNA-binding domain,SELEX-seq,"double-stranded DNA, one strand shown, in vitro","not given, 7-bp core, flanks averaged","reference: best-binding core, lower = stronger binding",relative binding free energy,0.191 ddG/RT

# Repeated from above (set 2):
conditions,relative binding score
with: (+)-ABA 0.11 µM,13%
